Published values of several laboratories.
Each numbered part is a random draw from the data of one study; scales do not carry over between parts.

Block 1
Target: Histone acetyltransferase KAT6A, winged helix 2, GST fusion (KAT6A, Homo sapiens, UniProt Q92794, residues 85-181)
Technique: protein binding microarray
Molecule type: double-stranded DNA, one strand shown
Medium: in vitro
Concentration: not given
Setting: 8-mer, flanks averaged, mean of 2 arrays, mostly near background
Relative to: not given
Reading: higher = stronger binding
Target sequence (chain): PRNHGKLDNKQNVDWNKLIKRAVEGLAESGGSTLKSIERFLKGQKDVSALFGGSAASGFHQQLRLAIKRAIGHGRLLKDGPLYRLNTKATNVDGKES
Strand | E-score
AAGACAGG | 0.0795
ACAATGCA | 0.0653
GCCTTTGA | -0.0574
CTCATTTA | -0.0261
AAACCATA | -0.011
AAAACAAT | 0.0375
CACGAATG | -0.0784
CAAACATC | -0.0283
ACAAAGAG | 0.0256

Block 2
Target: Interferon regulatory factor 7, full length, phosphomimetic (IRF7, Homo sapiens, UniProt Q92985, residues 1-503, S101K/S471D/S472D/S475D/S476D/S477D/S483D/S484D/S487D)
Technique: protein-binding microarray
Molecule type: double-stranded DNA, one strand shown
Medium: in vitro
Concentration: 250 nM
Setting: 60-bp whole probe
With: salmon DNA 0.4 mg/ml
Relative to: random background probes
Reading: higher = stronger binding
All sequences stand within: GCCTAGCAC … GTCTTGATTCGCTTGACGCTGCTG
Construct (chain): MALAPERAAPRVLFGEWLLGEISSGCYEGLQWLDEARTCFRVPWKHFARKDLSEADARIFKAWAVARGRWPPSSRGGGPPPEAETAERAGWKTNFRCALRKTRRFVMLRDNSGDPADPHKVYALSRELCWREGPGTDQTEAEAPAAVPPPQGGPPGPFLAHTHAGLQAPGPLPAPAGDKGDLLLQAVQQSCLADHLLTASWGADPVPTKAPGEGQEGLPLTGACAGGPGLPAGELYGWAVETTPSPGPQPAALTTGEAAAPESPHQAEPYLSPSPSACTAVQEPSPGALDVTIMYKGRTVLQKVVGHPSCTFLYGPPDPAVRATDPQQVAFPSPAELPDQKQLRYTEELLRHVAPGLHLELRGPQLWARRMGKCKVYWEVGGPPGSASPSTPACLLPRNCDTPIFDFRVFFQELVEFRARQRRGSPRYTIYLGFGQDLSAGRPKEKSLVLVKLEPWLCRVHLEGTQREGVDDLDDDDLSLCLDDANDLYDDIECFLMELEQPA
Strand | log fluorescence [z-score]
TTAGATATCGGGTTTCCATTAGTGCTA | 1.79
GACGGTTTCGGTTCCGGGAAGTGCTAG | 12.9
GTCGGACTGGACTATCGGGACGTGCTA | -0.574
GACGATTTCAGTTCCGTGACGTGCTAG | 0.549
TTAGAGCTGGGGTATCGATTAGTGCTA | -0.943
TTTGATTTCAGACTGGATTAGTGCTAG | 0.139
TTAGGACTGGACTATGGGTTAGTGCTA | -0.384
TTAGGTTTCCGTATCGGTTAGTGCTAG | 3.77
CACGGTATCCTTCTCCTGACGTGCTAG | 0.129

Block 3
Target: Sal-like protein 4, full length isoform B (SALL4, Homo sapiens, UniProt Q9UJQ4-2, residues 1-616)
Technique: universal PBM
Molecule type: double-stranded DNA, one strand shown
Medium: in vitro
Concentration: not given
Setting: 8-mer, flanks averaged, mean of replicates
Reading: higher = stronger binding
Strand | E-score
CGCACACG | -0.201
GGAGCGCC | -0.357
CTTATTAA | 0.378
CGCCGACG | -0.28
GTTGTCAA | -0.00388
AGGCTGGG | -0.286
CTAGCCGC | -0.317
ATTAAGAC | 0.218
AGTTTACC | 0.00218
ATAGTTCC | 0.0545

Single results of other studies
Molecule | target | assay | system | conditions | scale | quantity | value
PhoQ, residues 284 288 289 292 302 303 WVSSAF | PhoP, residues 12 14 15 18 19 LHHSG (Escherichia coli, UniProt P23836) | Sort-seq, item: YFP reporter | E. coli | PhoQ-PhoP variant library, with: 10 µM Mg2+ | relative to: high Mg2+ state, higher = stronger signaling | fold induction | 1.5

A few entries again (block 2):
Strand | log fluorescence [z-score]
TTAGGACTGGACTATGGGTTAGTGCTA | -0.384
TTAGGTTTCCGTATCGGTTAGTGCTAG | 3.77
CACGGTATCCTTCTCCTGACGTGCTAG | 0.129
